# Measured values gathered from unrelated publications.
# Compare with care: the assays were run in different laboratories.
# SLC6A4: Sodium-dependent serotonin transporter (SLC6A4, Homo sapiens, UniProt P31645)
# Sequence of UniProt P31645 (whole entry, looked up): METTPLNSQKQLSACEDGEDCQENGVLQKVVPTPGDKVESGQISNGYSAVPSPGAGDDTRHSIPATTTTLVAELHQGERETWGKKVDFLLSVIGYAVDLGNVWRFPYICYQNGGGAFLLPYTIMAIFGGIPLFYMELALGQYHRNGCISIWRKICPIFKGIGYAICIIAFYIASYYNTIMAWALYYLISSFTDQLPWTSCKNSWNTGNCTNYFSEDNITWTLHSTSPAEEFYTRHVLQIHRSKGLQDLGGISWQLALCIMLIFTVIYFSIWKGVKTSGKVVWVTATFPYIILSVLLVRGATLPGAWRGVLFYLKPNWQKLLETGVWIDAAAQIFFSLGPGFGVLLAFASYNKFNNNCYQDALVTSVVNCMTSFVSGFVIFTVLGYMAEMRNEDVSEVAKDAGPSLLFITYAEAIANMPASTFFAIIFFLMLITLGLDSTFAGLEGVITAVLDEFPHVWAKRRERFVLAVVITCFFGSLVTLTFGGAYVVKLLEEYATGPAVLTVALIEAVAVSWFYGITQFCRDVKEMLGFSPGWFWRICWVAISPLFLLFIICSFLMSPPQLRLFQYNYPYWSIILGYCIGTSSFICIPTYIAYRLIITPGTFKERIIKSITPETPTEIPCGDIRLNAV
# USP51: Ubiquitin carboxyl-terminal hydrolase 51 (USP51, Homo sapiens, UniProt Q70EK9)
# Sequence of UniProt Q70EK9 (whole entry, looked up): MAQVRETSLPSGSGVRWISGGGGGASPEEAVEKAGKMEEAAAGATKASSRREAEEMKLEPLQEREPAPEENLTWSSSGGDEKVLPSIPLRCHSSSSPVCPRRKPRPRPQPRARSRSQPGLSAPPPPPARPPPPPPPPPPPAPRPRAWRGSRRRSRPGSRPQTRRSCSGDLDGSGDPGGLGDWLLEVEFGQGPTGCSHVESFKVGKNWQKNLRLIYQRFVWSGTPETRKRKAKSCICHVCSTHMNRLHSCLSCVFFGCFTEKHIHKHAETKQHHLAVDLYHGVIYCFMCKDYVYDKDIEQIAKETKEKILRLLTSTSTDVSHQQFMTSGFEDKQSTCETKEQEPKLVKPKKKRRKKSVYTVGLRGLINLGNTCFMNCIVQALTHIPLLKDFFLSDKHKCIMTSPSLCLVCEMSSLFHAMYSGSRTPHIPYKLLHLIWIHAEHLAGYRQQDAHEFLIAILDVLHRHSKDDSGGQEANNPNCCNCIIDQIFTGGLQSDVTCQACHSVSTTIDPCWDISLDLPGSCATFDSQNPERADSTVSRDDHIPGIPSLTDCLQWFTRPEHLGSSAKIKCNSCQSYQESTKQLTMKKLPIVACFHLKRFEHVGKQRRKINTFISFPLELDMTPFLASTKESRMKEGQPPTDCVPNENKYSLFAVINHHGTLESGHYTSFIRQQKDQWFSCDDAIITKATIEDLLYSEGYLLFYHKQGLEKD
# MPO: Myeloperoxidase (MPO, Homo sapiens, UniProt P05164)
# Sequence of UniProt P05164 (whole entry, looked up): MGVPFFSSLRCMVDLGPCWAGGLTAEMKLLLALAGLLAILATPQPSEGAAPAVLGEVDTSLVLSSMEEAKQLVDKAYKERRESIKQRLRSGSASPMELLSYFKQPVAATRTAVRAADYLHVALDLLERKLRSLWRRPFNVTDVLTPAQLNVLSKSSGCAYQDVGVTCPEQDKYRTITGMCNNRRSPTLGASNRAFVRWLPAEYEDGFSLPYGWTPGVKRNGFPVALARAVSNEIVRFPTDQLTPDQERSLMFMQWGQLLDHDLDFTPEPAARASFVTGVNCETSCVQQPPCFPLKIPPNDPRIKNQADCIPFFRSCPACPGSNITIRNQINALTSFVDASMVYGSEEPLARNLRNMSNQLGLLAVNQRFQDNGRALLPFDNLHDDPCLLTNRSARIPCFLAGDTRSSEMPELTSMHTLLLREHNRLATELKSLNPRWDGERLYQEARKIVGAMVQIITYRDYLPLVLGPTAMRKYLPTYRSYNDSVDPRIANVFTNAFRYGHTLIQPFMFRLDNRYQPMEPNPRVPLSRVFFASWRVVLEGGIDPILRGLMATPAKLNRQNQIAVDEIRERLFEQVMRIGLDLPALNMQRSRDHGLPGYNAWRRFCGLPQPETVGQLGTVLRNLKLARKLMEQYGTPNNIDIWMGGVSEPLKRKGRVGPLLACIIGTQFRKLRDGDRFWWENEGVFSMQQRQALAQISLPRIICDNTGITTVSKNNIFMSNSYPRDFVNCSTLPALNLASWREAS
# HDAC1: Histone deacetylase 1 (HDAC1, Homo sapiens, UniProt Q13547)
# Sequence of UniProt Q13547 (whole entry, looked up): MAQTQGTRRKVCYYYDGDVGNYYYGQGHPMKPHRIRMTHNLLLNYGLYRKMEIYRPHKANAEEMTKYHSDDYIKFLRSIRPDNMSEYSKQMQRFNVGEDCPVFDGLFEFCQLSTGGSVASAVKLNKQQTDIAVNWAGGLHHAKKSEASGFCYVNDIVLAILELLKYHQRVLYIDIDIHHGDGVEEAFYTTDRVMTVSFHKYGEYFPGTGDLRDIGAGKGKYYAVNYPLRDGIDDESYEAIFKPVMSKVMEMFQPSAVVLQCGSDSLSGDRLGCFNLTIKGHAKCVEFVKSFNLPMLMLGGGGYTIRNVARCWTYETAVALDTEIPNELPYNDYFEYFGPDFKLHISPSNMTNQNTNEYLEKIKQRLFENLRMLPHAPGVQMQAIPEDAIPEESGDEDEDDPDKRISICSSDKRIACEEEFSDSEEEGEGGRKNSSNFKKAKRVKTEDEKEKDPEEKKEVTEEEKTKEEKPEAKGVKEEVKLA
# PTGS2: Prostaglandin G/H synthase 2 (PTGS2, Homo sapiens, UniProt P35354)
# Sequence of UniProt P35354 (whole entry, looked up): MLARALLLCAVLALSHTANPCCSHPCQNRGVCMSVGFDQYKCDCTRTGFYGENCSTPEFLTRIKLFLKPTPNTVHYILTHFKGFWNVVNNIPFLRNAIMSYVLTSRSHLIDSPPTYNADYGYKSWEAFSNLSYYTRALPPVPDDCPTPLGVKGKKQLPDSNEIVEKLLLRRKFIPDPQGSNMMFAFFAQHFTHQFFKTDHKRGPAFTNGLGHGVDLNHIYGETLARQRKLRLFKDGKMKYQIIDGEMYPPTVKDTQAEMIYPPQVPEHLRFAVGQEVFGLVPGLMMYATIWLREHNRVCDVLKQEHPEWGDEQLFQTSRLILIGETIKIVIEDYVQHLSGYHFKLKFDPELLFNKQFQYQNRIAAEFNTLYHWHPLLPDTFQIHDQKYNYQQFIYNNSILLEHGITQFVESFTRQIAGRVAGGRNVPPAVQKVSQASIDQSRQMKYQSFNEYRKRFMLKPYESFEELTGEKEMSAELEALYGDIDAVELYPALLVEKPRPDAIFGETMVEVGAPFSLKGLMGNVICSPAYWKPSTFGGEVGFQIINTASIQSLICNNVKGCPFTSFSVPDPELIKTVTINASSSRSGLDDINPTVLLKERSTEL
# SIRT6: NAD-dependent protein deacylase sirtuin-6 (SIRT6, Homo sapiens, UniProt Q8N6T7)
# Sequence of UniProt Q8N6T7 (whole entry, looked up): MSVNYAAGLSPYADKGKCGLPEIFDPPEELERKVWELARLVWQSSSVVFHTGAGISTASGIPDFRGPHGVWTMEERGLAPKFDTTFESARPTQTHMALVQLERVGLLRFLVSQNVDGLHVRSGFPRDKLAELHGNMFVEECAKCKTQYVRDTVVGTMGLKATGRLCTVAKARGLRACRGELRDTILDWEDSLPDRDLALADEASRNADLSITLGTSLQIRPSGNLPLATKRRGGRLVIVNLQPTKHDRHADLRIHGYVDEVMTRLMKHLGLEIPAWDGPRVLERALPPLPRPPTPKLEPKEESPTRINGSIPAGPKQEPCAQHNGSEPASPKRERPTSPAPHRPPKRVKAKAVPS
# PDE10A: cAMP and cAMP-inhibited cGMP 3',5'-cyclic phosphodiesterase 10A (PDE10A, Homo sapiens, UniProt Q9Y233)
# Sequence of UniProt Q9Y233 (whole entry, looked up): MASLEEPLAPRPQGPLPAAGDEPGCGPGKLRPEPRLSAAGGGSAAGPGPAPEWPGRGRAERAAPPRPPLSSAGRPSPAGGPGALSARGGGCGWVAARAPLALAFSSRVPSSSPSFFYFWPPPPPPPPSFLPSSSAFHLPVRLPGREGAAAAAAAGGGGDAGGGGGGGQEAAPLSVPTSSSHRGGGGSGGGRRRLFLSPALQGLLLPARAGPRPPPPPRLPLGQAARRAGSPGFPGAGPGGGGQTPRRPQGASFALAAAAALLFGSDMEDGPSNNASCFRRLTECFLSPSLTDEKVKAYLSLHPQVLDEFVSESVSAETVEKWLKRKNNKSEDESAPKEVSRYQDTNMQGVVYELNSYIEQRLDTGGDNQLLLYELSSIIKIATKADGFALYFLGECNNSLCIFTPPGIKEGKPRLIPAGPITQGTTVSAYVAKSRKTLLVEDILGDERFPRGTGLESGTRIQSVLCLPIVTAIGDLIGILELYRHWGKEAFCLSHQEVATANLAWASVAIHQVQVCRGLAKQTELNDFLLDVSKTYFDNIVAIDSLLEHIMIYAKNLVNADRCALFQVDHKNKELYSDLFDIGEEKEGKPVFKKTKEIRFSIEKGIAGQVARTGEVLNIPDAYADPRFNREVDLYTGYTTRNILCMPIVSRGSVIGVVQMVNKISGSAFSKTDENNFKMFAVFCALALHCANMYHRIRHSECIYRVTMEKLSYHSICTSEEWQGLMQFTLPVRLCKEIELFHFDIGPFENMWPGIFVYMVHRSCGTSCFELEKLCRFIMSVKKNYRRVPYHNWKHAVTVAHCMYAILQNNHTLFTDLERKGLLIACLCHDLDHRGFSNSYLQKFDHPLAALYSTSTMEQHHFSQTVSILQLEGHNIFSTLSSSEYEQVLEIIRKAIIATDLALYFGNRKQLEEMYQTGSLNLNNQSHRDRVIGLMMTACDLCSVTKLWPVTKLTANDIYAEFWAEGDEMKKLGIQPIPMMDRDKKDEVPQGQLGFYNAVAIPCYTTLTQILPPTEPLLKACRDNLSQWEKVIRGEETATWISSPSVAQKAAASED
# SCN1A: Sodium channel protein type 1 subunit alpha (SCN1A, Homo sapiens, UniProt P35498)
# HDAC8: Histone deacetylase 8 (HDAC8, Homo sapiens, UniProt Q9BY41)
# Sequence of UniProt Q9BY41 (whole entry, looked up): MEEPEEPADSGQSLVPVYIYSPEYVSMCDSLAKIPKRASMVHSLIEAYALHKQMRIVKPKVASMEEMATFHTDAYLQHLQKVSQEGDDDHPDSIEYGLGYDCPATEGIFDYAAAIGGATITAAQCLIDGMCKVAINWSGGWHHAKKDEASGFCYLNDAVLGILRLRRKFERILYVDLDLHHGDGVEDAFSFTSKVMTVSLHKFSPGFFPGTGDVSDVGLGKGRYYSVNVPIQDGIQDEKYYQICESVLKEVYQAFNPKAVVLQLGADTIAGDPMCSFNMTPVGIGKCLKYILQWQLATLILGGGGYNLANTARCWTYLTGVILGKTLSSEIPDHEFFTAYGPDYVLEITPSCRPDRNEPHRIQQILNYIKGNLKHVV
SMILES,target,read-out,action,technique,cells,tested at,inhibition [%]
N#C[C@@]12C[C@@H]1[C@@H](n1cnc3c(Nc4ccc(Cl)c(Cl)c4)nc(I)nc31)[C@H](O)[C@@H]2O,SLC6A4,ligand displacement,,radioligand,,10 µM,10
OC[C@H]1O[C@@H](Oc2cc(O)cc(/C=C/c3ccc(O)cc3)c2)[C@H](O)[C@@H](O)[C@@H]1O,USP51,enzyme activity,inhibitor,,,5 µM,9
CC(C)OCCn1c(=S)[nH]c(=O)c2[nH]ccc21,MPO,enzyme activity,inhibitor,fluorescence,,3.333 µM,99.3
Cc1cc(OS(=O)(=O)Oc2ccc3ccccc3c2)cc(C(=O)NO)c1,HDAC1,enzyme activity,inhibitor,fluorescence,,5 µM,7
CC(C)=CCC[C@](C)(O[C@@H]1O[C@H](CO)[C@@H](O)[C@H](O)[C@H]1O)[C@H]1CC[C@]2(C)[C@@H]1[C@H](O)C[C@@H]1[C@@]3(C)CC[C@H](O)C(C)(C)[C@@H]3[C@@H](O[C@@H]3O[C@H](CO)[C@@H](O)[C@H](O)[C@H]3O[C@@H]3O[C@@H](C)[C@H](O)[C@@H](O)[C@H]3O)C[C@]12C,USP51,enzyme activity,inhibitor,,,5 µM,0
Nc1nc2[nH]c(C3CC3)c(Cc3ccc(Cl)c(Cl)c3)c(=O)n2n1,"CCR5 (Homo sapiens, UniProt P51681)",β-arrestin recruitment,antagonist,,,1 µM,93
CN1CC(Oc2cnc(C#N)cc2-c2ccn3nc(NC(=O)C4CC4)cc3c2)C1,"STK25 (Homo sapiens, UniProt O00506)",enzyme activity,inhibitor,,,1 µM,-21
COC(=O)c1ccc(O)cc1,PTGS2,enzyme activity,inhibitor,,,7.81 µg/mL,18.6
COc1cc([C@H]2Oc3cc([C@H]4Oc5cc(O)cc(O)c5C(=O)[C@@H]4O)ccc3O[C@@H]2CO)ccc1O,USP51,enzyme activity,inhibitor,,,5 µM,13
CNc1cc(Oc2cc(C(=O)Nc3cc(N4CCN(C)CC4)cc(C(F)(F)F)c3)ccc2C)ncn1,"MAP2K4 (Homo sapiens, UniProt P45985)",target engagement in cells,inhibitor,chemoproteomics,Huh-7,1 µM,-31.3
O=C(NO)c1cncc(OS(=O)(=O)Oc2ccc3ccccc3c2)c1,"HDAC9 (Homo sapiens, UniProt Q9UKV0)",enzyme activity,inhibitor,fluorescence,,10 µM,35
Cc1ccccc1Sc1ccc(CONC(=O)c2ccc(C(N)=O)cc2)cc1C(F)(F)F,SIRT6,enzyme activity,inhibitor,fluorescence,,100 µM,100
Cc1ncc(CO)c(CO)c1O,USP51,enzyme activity,inhibitor,,,5 µM,30
COc1cc2ccnc(Cc3cccc4ccccc34)c2cc1OC,PDE10A,enzyme activity,inhibitor,FP,,0.1 µM,18
C[C@H]1[C@@H](O)O[C@@H]2O[C@@]3(C)CC[C@H]4[C@H](C)CC[C@@H]1[C@@]24OO3,USP51,enzyme activity,inhibitor,,,5 µM,0
O=c1cc(-c2ccc(O)cc2)oc2cc(O)cc(O)c12,PTGS2,enzyme activity,inhibitor,,,15.63 µg/mL,100
COc1cc2ncnc(Cc3cccc(-c4cccnc4)c3)c2cc1OC,PDE10A,enzyme activity,inhibitor,FP,,0.1 µM,75
NC/C(=C\F)COc1cccc(Cn2c(=S)[nH]c(=O)c3[nH]cnc32)c1,MPO,enzyme activity,inhibitor,fluorescence,,0.1111 µM,90.8
CC[C@H](C)[C@H](NC(=O)[C@H](CCC(N)=O)NC(=O)[C@H](CC(C)C)NC(=O)[C@H](CCSC)NC(=O)[C@H](CCCCN)NC(=O)[C@H](CO)NC(=O)[C@H](CO)NC(=O)[C@H](CCSC)NC(=O)[C@H](CC(C)C)NC(=O)[C@H](CC(N)=O)NC(=O)[C@@H](NC(=O)[C@@H](NC(=O)[C@H](CO)NC(=O)[C@H](CC(C)C)NC(=O)[C@H](CS)NC(=O)[C@H](CCCNC(=N)N)NC(=O)[C@H](CC(=O)O)NC(=O)[C@H](Cc1c[nH]c2ccccc12)NC(=O)[C@H](Cc1ccccc1)NC(=O)[C@H](C)NC(=O)[C@H](CCC(=O)O)NC(=O)[C@@H](N)CCCCN)C(C)C)[C@@H](C)CC)C(=O)N[C@@H](CC(N)=O)C(=O)N[C@@H](C)C(=O)O,"Cyclin-dependent kinase 5, with p35 (CDK5, Homo sapiens, UniProt Q00535)",enzyme activity,inhibitor,radiometric,,1 µM,-2
O=C1NC(=O)C(c2ccccc2)(c2ccccc2)N1,SCN1A,ion current,inhibitor,patch clamp,,30 µM,12.5
CC(/C=C/C=C(\C)C(=O)O[C@@H]1O[C@H](CO[C@@H]2O[C@H](CO)[C@@H](O)[C@H](O)[C@H]2O)[C@@H](O)[C@H](O)[C@H]1O)=C\C=C\C=C(C)\C=C\C=C(/C)C(=O)O[C@@H]1O[C@H](CO[C@@H]2O[C@H](CO)[C@@H](O)[C@H](O)[C@H]2O)[C@@H](O)[C@H](O)[C@H]1O,USP51,enzyme activity,inhibitor,,,5 µM,0
COc1ccc(-c2cc(=O)c3c(O)cc(O[C@@H]4O[C@H](CO)[C@@H](O)[C@H](O)[C@H]4O)cc3o2)cc1O,PTGS2,enzyme activity,inhibitor,,,0.12 µg/mL,26.2
COc1cccc(-c2cccc(Cc3ncnc4cc(OC)c(OC)cc34)c2)c1,PDE10A,enzyme activity,inhibitor,FP,,0.1 µM,65
S=C(NN=Cc1ccc(N2CCCCC2)cc1)Nc1cccc(Cl)c1Cl,"DHFR (Homo sapiens, UniProt P00374)",enzyme activity,inhibitor,,,500 µM,74.7
Cc1cc(OS(=O)(=O)Oc2ccc(C(F)(F)F)cc2)cc(C(=O)NO)c1,HDAC1,enzyme activity,inhibitor,fluorescence,,10 µM,13
CCCCCCC#Cc1cncc(-c2nnc(SCc3ccc(Cl)cc3)n2CCCN)c1,"mraY (Staphylococcus aureus, UniProt Q2FZ93)",cell-free assay,inhibitor,,,250 µM,34
Cc1cc(OS(=O)(=O)Oc2cccc(C(C)(C)C)c2)cc(C(=O)NO)c1,"HDAC6 (Homo sapiens, UniProt Q9UBN7)",enzyme activity,inhibitor,fluorescence,,10 µM,50
Nc1nc(=O)c2nc(CNc3ccc(C(=O)N[C@@H](CCC(=O)O)C(=O)O)cc3)cnc2[nH]1,USP51,enzyme activity,inhibitor,,,5 µM,0
NC(=O)c1ccc(C(=O)NOCc2ccc(Sc3ccc(C(F)(F)F)cc3)c(C(F)(F)F)c2)cc1,SIRT6,enzyme activity,inhibitor,fluorescence,,100 µM,90.6
C=C[C@@]1(C)C=C2CC[C@@H]3[C@](C)(CCC[C@@]3(C)C(=O)O)[C@H]2CC1,PTGS2,enzyme activity,inhibitor,,,3.9 µg/mL,39.2
C[C@H]1O[C@H](O[C@H]2[C@H](O)[C@@H](O)[C@@H](O[C@H]3[C@H](O)[C@@H](O)C(O)O[C@@H]3CO)O[C@@H]2CO)[C@H](O)[C@@H](O)[C@@H]1N[C@H]1C=C(CO)[C@@H](O)[C@H](O)[C@H]1O (stereo partly drawn),"MAL12 (Saccharomyces cerevisiae S288c, UniProt P53341)",enzyme activity,inhibitor,absorbance,,800 µg/mL,70.3
CC(=O)O[C@H]1C(=O)[C@@]2(C)[C@H]([C@H](OC(=O)c3ccccc3)[C@]3(O)C[C@H](OC(=O)[C@H](O)[C@@H](NC(=O)c4ccccc4)c4ccccc4)C(C)=C1C3(C)C)[C@]1(OC(C)=O)CO[C@@H]1C[C@@H]2O,USP51,enzyme activity,inhibitor,,,5 µM,13
O=C(NO)c1cccc(OS(=O)(=O)Oc2ccc(-c3cccc(C(F)(F)F)c3)cc2)c1,HDAC1,enzyme activity,inhibitor,fluorescence,,10 µM,47
CNCCCC12CCC(c3ccccc31)c1ccccc12,SCN1A,ion current,inhibitor,patch clamp,,3 µM,6.2
COc1cc(-c2cc(=O)c3c(O)cc(O)cc3o2)ccc1O,PTGS2,enzyme activity,inhibitor,,,1.95 µg/mL,19.2
O[C@@H]1[C@H](O)[C@@H]2C[C@@H]2[C@H]1n1cnc2c(NCCC3CC3)ncnc21,SLC6A4,ligand displacement,,radioligand,,10 µM,6
NC(=O)c1ccc(C(=O)NOCc2ccc(F)cc2)cc1,SIRT6,enzyme activity,inhibitor,fluorescence,,100 µM,73.7
Cc1ncsc1-c1ccc(CNC(=O)[C@@H]2C[C@@H](O)CN2C(=O)[C@@H](NC(=O)CCCCCCCCNC(=O)CN2CCN(C(=O)c3ccc(Nc4nc(C5CC5)cn5c(-c6cn[nH]c6)cnc45)c(F)c3)CC2)C(C)(C)C)cc1,"STK33 (Homo sapiens, UniProt Q9BYT3)",cell-free assay,,competition with immobilised ligand,,1 µM,> 65
Cc1c(OS(=O)(=O)Oc2ccc(Oc3ccccc3)cc2)cccc1C(=O)NO,HDAC8,enzyme activity,inhibitor,fluorescence,,10 µM,17
COc1cc([C@H]2OC[C@H]3[C@@H]2CO[C@@H]3c2cc(OC)c(O)c(OC)c2)cc(OC)c1O,PTGS2,enzyme activity,inhibitor,,,7.81 µg/mL,100
CC[C@H](C)[C@H](NC(=O)[C@H](CCC(N)=O)NC(=O)[C@@H](NC(=O)[C@H](CCSC)NC(=O)[C@H](CCCCN)NC(=O)[C@H](CO)NC(=O)[C@@H](NC(=O)[C@H](CCSC)NC(=O)[C@H](CC(C)C)NC(=O)[C@H](CC(N)=O)NC(=O)[C@@H](NC(=O)[C@@H](NC(=O)[C@H](CO)NC(=O)[C@H](CC(C)C)NC(=O)[C@H](C)NC(=O)[C@H](CCCNC(=N)N)NC(=O)[C@H](CCC(=O)O)NC(=O)[C@H](Cc1ccc(O)cc1)NC(=O)[C@H](Cc1ccccc1)NC(=O)[C@H](C)NC(=O)[C@H](CC(N)=O)NC(=O)[C@@H](N)CCCCN)[C@@H](C)CC)[C@@H](C)CC)[C@@H](C)O)C(C)C)C(=O)N[C@@H](CC(N)=O)C(=O)N[C@H](C(=O)O)C(C)C,"GSK3B (Homo sapiens, UniProt P49841)",enzyme activity,inhibitor,radiometric,,10 µM,-3
Cc1c(OS(=O)(=O)Oc2ccc(Br)cc2)cccc1C(=O)NO,HDAC8,enzyme activity,inhibitor,fluorescence,,10 µM,22

# Excerpt of the above:
SMILES,target,read-out,action,technique,cells,tested at,inhibition [%]
COc1cc(-c2cc(=O)c3c(O)cc(O)cc3o2)ccc1O,PTGS2,enzyme activity,inhibitor,,,1.95 µg/mL,19.2
O=c1cc(-c2ccc(O)cc2)oc2cc(O)cc(O)c12,PTGS2,enzyme activity,inhibitor,,,15.63 µg/mL,100
Nc1nc(=O)c2nc(CNc3ccc(C(=O)N[C@@H](CCC(=O)O)C(=O)O)cc3)cnc2[nH]1,USP51,enzyme activity,inhibitor,,,5 µM,0
Cc1ncc(CO)c(CO)c1O,USP51,enzyme activity,inhibitor,,,5 µM,30
COc1cc2ncnc(Cc3cccc(-c4cccnc4)c3)c2cc1OC,PDE10A,enzyme activity,inhibitor,FP,,0.1 µM,75
